Results of several laboratories.
Every numbered part comes from another study and shows a few of its results, in no order. Substitutions count along the parent as printed.
UniProt Q9C0B0, sequence (30-357, looked up): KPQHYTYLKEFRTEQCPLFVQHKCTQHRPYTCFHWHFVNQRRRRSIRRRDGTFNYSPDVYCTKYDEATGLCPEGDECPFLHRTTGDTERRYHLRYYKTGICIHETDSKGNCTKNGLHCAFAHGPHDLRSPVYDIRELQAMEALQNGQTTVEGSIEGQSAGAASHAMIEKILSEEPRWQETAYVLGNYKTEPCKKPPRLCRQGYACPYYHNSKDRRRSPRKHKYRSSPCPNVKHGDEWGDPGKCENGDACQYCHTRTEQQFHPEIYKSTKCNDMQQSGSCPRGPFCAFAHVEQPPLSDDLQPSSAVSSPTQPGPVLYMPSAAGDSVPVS

Study 1
Target: Interferon regulatory factor 5, full length, phosphomimetic (IRF5, Homo sapiens, UniProt Q13568-2, residues 1-514, K96S/S451D/S453D/S456D/S462D)
Technique: protein-binding microarray
Molecule type: double-stranded DNA, one strand shown
Sample: in vitro
Tested at: 250 nM
Notes: 60-bp whole probe
With: salmon DNA 0.4 mg/ml
Baseline: random background probes
Direction: higher = stronger binding
Constant ends, left off below: GCCTAGCAC … GTCTTGATTCGCTTGACGCTGCTG
| Oligonucleotide | log fluorescence |
| --- | --- |
| TTAGGTTTTCTTTTCCTTTAGTGCTAG | 1.33 z-score |
| TCAATTTTCTTTAACTCACTGTGCTAG | 1.29 z-score |
| CTTTTTCCCTATTATATATATGTGCTA | 1.98 z-score |
| TCATAACTCAAGATTCCTACTGTGCTA | 0.273 z-score |
| TTTCCCATGAGTCTCAATATGTGCTAG | 1.83 z-score |
| TTAGGTTTTGGTATCGGTTAGTGCTAG | 8.43 z-score |
| TTAGGTTTCCTTCTCCTTAAGTGCTAG | 1.53 z-score |
| GACGGTTTCGGTTCCGGGTCGTGCTAG | 9.74 z-score |
| ACACTTTCCCCTTCCTAGTTGTGCTAG | 2.39 z-score |
| TGTAGAGTAGCTTTCTGAGGGTGCTAG | 0.476 z-score |
| CTCTGTCCCCCTTTTATATTGTGCTAG | -0.0632 z-score |
| TCAAAAATGAATATTAGACTGTGCTAG | 0.209 z-score |
| TCCCCTCCGGGACCCGCCTCGTGCTAG | -0.412 z-score |
| GACGTTTTCGACTATCGGGACGTGCTA | 4.92 z-score |
| GAATATATGTATATATGTGTGTGCTAG | 0.56 z-score |
| TTAGGTGTCGGTCTCGGTTAGTGCTAG | 0.386 z-score |
| CTAGATCTCAGACTGGATTAGTGCTAG | -0.231 z-score |
| TTAGGTTTCAGTTCCGGTTAGTGCTAG | 6.15 z-score |
| GACGAAGTGAGTTTCGAGACGTGCTAG | 4.79 z-score |
| TCAAGAGTAGTTTTTCAAACTGTGCTA | 0.405 z-score |
| TTGCCTCTGCTGCTGGCCGCGTGCTAG | -0.466 z-score |
| TTAGGTTTCCTTTTCCTTCAGTGCTAG | 1.68 z-score |
| TTAGGTATTCTTCTCCTTTAGTGCTAG | 0.382 z-score |
| TCAACCCTCCCTCTGTAACTGTGCTAG | -0.392 z-score |

Study 2
Target: ABI1, truncated, D143A, DHFR fusion (Arabidopsis thaliana)
Technique: DHFR PCA, deep sequencing
Sample: yeast
Notes: methotrexate growth selection, single substitutions
With: (+)-ABA 0.39 µM
Baseline: wild-type fitted maximum
Direction: higher = stronger binding
Parent: PYL1, truncated, DHFR fusion (Arabidopsis thaliana); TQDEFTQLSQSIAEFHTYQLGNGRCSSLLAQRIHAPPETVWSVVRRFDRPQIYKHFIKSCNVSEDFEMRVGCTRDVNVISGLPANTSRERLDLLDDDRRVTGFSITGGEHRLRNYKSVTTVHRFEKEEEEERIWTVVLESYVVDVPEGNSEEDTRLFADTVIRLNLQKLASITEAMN; partner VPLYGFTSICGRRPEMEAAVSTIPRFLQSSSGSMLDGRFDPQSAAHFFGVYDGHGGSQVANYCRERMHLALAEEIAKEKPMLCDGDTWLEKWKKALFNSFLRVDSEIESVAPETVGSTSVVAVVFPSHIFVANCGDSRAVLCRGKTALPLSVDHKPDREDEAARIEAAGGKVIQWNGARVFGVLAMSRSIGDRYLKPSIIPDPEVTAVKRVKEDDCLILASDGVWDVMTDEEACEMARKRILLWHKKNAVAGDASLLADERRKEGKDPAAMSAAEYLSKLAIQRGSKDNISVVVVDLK
| Substitution | relative binding score |
| --- | --- |
| V143W | -20.5% |
| A158D | -1.08% |
| R32F | 30.6% |
| T6M | 52.2% |
| N149T | 57.4% |
| R32M | 36.8% |
| V43E | -0.38% |
| T101E | 4.6% |
| T86H | 44.6% |
| I52G | 0.744% |
| R24K | 56.7% |
| R90E | 14.3% |
| N22A | 62.6% |
| L8E | 3.29% |
| L94C | 2.14% |
| R99Y | 80.9% |
| K126G | 63.1% |
| A175E | 36.3% |
| N22K | 59.7% |
| F103N | -9.48% |
| L156V | 32.9% |
| R74T | -8.55% |
| E4A | 23.5% |
| A13M | 30.2% |
| T1A | 44.1% |

Study 3
Target: Histone acetyltransferase KAT6A, winged helix 2, GST fusion (KAT6A, Homo sapiens, UniProt Q92794, residues 85-181)
Technique: protein binding microarray
Molecule type: double-stranded DNA, one strand shown
Sample: in vitro
Tested at: not given
Notes: 8-mer, flanks averaged, mean of 2 arrays, mostly near background
Baseline: not given
Direction: higher = stronger binding
Construct (chain): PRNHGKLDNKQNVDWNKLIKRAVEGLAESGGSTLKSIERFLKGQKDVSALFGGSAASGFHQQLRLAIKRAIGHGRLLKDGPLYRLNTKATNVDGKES
| Oligonucleotide | E-score |
| --- | --- |
| AACTTTAG | -0.0864 |
| GAACATTC | -0.127 |
| GCTCTTTA | 0.109 |
| TCACACCA | 0.00287 |
| CGACTCAG | -0.0421 |
| AATACAAC | -0.0642 |
| CGGCGACG | 0.208 |
| CGCGTTGA | -0.0459 |
| CCATGAAC | 0.0901 |
| AGAGCTGG | 0.00969 |
| AGAGACTA | -0.119 |
| AAAGAATC | -0.0584 |
| ACACGTCA | -0.214 |
| CTTCGCGC | 0.247 |
| ATCCCTTA | -0.0742 |
| GTACAAAC | 0.00464 |

Study 4
Target: RNA binding protein fox-1 homolog 2, RRM domain, GST-SBP tag (RBFOX2, Homo sapiens, UniProt O43251-10, residues 100-194)
Technique: RNA Bind-n-Seq
Molecule type: RNA
Sample: in vitro
Tested at: 365 nM
Notes: natural RNA segment, single round, ends assumed
Baseline: no-protein control
Direction: higher = stronger binding
Constant ends, left off below: GGGAGUUCUACAGUCCGACGAUC … UGGAAUUCUCGGGUGCCAA
Target sequence (chain): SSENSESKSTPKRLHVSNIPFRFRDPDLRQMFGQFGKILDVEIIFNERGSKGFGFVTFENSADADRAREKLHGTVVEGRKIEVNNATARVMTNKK
| Oligonucleotide | RBNS enrichment (R) |
| --- | --- |
| AGACUUACAUGCCAUCUUCUGAGUAAAGAGUUUGAGGUUUUAAUUUAAAGGCAAUGUACAGCUAUACUUUUUUAUAUGCUCUUCCAGUCAGUUAAAUUAUGGCCUACACU | 0.299 |
| UCUCAAUGUUCCAAGAGGUUCUGGCCUUCAGGGUCACAGGCAGUAGGGGGACAGCAUAAGGUCUAUGUAAAACCCUUCCCUCUCUGACCCUCUGUUUUCAAAUCUGUAAA | 0.304 |
| GCUAUCCAAACUGGGGAAGAAGGGGAAAUGGUUGUUACCAACAAUCUCUAGUAGUUAUUUUAAUCUUUAUUUUAACCUGGAUUGCAAAUGUAUGGGGUAUGAGGAGAUAA | 4.93 |
| UGUGCAGAAAGUAGGCCAUUCUCAGCUAGGAUGUAGAAGAACUUGCAGGCUUUGAAACAGCCAACAGAUCCCCUUAGCUCUCUGUCAGUCACGAAGCUAUAUGCCAGGCU | 0.41 |
| CUGAGAGGAUGUAGACUGGGCUGGGGCGAGAACAUGUCACACUAGAUCCCAGUCCACGAUGAUGAGUCAGGGAGACUCGAUAACUGCUCCUUGGCCAUUCAUUUUCCUCC | 0.411 |
| UUUGUACUGUCCUGUCCCAUCUCCCUGUCCCCGCCUGUCCCCGUCCCCUCUGUCAUGGCAGCUCUGCAGGGGCAUGAAUCUGAGUGACGAGAGCCUGCGUUCUUCUGCCU | 10.7 |
| UAUAAAAGCCUUUUCAGAGUUUUCAUCUGAUUUGUCCUGAGGAUCUAGUUCUAUCAAAUACCUUAUUUUACCUUUGCCAUACUUGCUGCACAAGCAGACACUGCUGGACU | 0.224 |
| AUGUCUGUAAUUUUGCUAGUUCAUGAACUGUAAUGUAAACAUCUGGUAUGAAGAAUAUCUGAUAUGCGACUCCUAUGAAAGGGUCGUUUGACCCCACCCCCAACCCCAAU | 0.381 |
| AAUCUCAUAUUGGAGAGUGAAUGUCGUUAAGUAUUUCUGAAAUGUUUCUAAAAAAUGAACAUGAAAAAAAUAAGGUAUUUUCUCCCUAGCUUCUCAUUACAGUAUUUCUA | 0.377 |
| CGCUGGAAAUCCAGUUCUUCAGGAACUGCCUUCCUCCCUAAUUCUGCUCUUGCUUUUCAGAGAGCCAUCAUGGUCAUGUCAUGCUGAGGUCACAUGUAUAAAAUUAGCUU | 0.89 |
| GGCACGUUACCAUGGAAGCCGCUCCAGGGUGGGUCAGGGUGCAAGCUGCUGGUGAGGUUUGGAAGCAUCAGGCUCACGGGUGUUCAUGUGUGUUCGUGCGUGUGUGUGCG | 0.558 |
| CUAUUUUCCCCCCAGACUGGAAUUUCCUCAGCUUUAUCUUGUCUUGCUUUGAAGUUUUGCUCAAUGUUCCUCCCUUCCGACCACUUCCACUUAAAUAAAGUCUUUAAGUA | 5.23 |

Other studies, line by line
| Oligonucleotide | target | test | test system | setting | how to read | measurement | value |
| --- | --- | --- | --- | --- | --- | --- | --- |
| GGGAGUUCUACAGUCCGACGAUCGGUCAUUUACCGCAAUCCGAGUGGGUUGCCCCUCUACUUCUCCCAAGAAGAAAUCCCAAACCGAUUCCUUUCAUGUCAGAUUAUACUGUUCUGAUUUUAUUUUCUAUUAUUUUUACAUAUCAACAGAGGAUUGAGCAUCA | RING finger protein unkempt homolog, zinc fingers 1-6, SBP tag (UNK, Homo sapiens, UniProt Q9C0B0, residues 30-357) | RNA Bind-n-Seq | RNA, in vitro | 100 nM, RNA with constant flanks, ends assumed | baseline: input RNA pool, higher = stronger binding | bound/input enrichment | 0.421 ratio |

Repeated from above (study 3):
| Oligonucleotide | E-score |
| --- | --- |
| AATACAAC | -0.0642 |
| CGGCGACG | 0.208 |
| CGCGTTGA | -0.0459 |
| CCATGAAC | 0.0901 |
| AGAGCTGG | 0.00969 |
| AGAGACTA | -0.119 |
| AAAGAATC | -0.0584 |
| ACACGTCA | -0.214 |
| CTTCGCGC | 0.247 |
| ATCCCTTA | -0.0742 |
| GTACAAAC | 0.00464 |
